Assay results pooled from the literature.
Each line is one published result; not all experiments were run side by side. Numbers after ± are the reported error.
SIRT2: NAD-dependent protein deacetylase sirtuin-2 (SIRT2, Homo sapiens, UniProt Q8IXJ6)
Chain of UniProt Q8IXJ6 (whole entry, looked up): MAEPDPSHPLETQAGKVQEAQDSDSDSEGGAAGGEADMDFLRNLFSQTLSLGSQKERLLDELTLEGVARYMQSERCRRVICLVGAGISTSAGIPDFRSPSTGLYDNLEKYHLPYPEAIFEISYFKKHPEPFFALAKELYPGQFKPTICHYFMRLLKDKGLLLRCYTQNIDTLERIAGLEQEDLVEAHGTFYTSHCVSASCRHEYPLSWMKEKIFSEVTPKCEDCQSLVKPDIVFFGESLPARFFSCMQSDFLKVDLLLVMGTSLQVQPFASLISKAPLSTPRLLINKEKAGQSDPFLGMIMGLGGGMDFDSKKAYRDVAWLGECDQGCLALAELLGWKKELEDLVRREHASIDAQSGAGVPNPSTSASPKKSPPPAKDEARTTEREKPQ
CYP2C8: Cytochrome P450 2C8 (CYP2C8, Homo sapiens, UniProt P10632)
Chain of UniProt P10632 (whole entry, looked up): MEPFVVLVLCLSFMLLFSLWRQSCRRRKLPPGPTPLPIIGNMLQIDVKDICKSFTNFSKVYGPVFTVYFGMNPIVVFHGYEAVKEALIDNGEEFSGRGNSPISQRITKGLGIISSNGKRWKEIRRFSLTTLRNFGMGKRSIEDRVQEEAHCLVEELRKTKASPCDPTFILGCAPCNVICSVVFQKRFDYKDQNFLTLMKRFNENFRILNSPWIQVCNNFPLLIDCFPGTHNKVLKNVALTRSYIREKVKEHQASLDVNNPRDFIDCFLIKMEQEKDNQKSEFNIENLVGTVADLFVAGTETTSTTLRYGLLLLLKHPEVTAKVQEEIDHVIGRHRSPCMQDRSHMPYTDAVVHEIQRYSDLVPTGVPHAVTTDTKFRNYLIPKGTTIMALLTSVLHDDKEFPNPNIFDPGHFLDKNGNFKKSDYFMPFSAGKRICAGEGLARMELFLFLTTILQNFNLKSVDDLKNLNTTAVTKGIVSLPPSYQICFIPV
Histone acetyltransferase RTT109 with Vps75: Histone acetyltransferase RTT109, with Vps75 (Saccharomyces cerevisiae, UniProt Q07794)
Chain of UniProt Q07794 (whole entry, looked up): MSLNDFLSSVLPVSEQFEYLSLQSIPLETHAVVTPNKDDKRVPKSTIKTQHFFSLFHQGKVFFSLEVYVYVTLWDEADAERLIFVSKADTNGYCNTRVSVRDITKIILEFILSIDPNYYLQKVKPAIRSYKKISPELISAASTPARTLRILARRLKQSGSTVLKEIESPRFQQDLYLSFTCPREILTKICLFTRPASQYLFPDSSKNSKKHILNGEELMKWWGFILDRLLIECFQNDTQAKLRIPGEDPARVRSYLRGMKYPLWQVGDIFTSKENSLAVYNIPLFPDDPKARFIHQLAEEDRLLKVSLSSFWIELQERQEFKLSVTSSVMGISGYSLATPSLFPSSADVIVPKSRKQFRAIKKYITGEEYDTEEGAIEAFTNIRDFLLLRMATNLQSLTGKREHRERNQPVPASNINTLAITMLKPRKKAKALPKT
BRD4 BD2: Bromodomain-containing protein 4, BD2 (BRD4, Homo sapiens, UniProt O60885)
LYN: Tyrosine-protein kinase Lyn (LYN, Homo sapiens, UniProt P07948)
Chain of UniProt P07948 (whole entry, looked up): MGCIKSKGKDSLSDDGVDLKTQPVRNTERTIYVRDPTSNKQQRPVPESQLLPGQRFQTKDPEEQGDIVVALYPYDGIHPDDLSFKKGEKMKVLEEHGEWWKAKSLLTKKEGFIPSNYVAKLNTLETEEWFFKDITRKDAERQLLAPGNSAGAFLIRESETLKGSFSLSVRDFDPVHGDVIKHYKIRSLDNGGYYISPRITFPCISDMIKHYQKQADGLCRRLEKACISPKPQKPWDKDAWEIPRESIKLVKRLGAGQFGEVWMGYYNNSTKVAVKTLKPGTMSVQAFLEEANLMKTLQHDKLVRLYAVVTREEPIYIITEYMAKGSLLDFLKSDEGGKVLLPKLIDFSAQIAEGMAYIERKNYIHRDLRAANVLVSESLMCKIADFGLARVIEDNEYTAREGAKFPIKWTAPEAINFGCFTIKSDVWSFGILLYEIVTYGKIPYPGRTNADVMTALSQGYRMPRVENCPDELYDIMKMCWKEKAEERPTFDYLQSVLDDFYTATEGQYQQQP
UCHL1: Ubiquitin carboxyl-terminal hydrolase isozyme L1 (UCHL1, Homo sapiens, UniProt P09936)
Chain of UniProt P09936 (whole entry, looked up): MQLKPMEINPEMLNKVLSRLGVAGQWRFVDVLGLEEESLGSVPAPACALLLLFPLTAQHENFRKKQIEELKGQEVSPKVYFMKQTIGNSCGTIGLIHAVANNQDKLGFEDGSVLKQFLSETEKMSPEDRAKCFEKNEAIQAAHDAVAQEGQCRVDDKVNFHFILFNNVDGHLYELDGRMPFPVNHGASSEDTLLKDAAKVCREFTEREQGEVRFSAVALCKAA
Chain of UniProt Q5S007 (whole entry, looked up): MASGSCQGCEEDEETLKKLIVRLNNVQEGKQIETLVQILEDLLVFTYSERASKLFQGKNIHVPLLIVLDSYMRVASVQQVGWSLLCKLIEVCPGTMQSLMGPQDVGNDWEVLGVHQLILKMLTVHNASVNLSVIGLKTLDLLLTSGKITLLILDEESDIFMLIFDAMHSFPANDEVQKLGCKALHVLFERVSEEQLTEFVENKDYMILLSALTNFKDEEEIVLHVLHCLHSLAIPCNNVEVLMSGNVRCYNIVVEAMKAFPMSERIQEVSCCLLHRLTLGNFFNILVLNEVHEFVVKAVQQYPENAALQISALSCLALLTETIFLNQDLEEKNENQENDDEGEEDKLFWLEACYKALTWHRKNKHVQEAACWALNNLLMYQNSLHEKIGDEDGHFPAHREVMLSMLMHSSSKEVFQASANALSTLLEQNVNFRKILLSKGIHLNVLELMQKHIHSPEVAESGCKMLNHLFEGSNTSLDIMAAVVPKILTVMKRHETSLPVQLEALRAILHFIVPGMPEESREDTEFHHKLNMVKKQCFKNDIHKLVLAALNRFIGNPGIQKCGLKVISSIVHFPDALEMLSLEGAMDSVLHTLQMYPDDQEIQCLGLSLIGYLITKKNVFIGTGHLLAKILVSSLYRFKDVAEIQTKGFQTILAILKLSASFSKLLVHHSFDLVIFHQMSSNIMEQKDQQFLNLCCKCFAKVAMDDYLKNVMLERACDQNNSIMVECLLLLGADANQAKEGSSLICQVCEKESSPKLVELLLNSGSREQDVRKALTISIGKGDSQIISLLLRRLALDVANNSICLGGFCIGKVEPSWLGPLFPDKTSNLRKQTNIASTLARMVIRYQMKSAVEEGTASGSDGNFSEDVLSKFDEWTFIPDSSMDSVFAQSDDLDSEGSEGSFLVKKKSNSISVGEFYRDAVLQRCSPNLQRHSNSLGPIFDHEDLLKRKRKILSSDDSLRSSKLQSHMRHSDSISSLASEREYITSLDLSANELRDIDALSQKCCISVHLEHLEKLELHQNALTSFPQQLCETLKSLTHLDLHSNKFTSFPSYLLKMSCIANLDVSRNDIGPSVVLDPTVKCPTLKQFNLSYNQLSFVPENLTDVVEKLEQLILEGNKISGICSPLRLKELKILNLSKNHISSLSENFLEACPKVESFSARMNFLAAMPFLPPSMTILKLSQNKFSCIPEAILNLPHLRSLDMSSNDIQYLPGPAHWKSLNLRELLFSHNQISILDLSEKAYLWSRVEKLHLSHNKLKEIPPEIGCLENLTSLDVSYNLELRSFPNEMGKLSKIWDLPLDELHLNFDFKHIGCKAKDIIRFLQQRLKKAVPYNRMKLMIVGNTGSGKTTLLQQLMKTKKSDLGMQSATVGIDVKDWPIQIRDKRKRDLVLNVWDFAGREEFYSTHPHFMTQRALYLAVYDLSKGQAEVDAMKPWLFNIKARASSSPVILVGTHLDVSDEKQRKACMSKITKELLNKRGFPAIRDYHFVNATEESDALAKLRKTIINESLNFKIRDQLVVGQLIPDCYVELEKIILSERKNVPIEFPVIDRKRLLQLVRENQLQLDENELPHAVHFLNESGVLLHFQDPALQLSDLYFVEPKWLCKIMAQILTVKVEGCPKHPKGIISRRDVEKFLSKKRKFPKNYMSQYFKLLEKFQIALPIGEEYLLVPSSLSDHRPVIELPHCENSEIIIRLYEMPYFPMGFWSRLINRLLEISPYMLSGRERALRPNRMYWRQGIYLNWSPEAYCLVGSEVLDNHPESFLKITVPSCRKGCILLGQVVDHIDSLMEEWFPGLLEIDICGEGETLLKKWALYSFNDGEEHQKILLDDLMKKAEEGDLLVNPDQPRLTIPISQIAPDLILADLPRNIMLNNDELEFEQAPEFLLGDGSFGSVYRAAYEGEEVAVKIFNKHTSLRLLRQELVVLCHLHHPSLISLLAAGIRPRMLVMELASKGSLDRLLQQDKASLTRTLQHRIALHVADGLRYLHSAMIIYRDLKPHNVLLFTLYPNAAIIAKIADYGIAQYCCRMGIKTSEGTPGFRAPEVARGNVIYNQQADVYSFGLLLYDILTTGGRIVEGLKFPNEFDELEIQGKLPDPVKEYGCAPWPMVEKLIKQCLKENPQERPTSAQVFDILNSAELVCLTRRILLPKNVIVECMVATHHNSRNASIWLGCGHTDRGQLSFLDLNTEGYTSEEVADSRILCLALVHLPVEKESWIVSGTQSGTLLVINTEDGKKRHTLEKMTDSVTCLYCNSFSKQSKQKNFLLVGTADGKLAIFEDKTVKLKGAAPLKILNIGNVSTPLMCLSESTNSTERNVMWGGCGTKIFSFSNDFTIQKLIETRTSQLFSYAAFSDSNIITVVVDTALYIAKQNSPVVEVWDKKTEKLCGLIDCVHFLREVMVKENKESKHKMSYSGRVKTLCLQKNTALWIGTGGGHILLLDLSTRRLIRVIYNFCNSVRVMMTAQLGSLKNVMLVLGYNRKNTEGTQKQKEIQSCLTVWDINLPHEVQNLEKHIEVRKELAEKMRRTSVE
Chain of UniProt P49841 (whole entry, looked up): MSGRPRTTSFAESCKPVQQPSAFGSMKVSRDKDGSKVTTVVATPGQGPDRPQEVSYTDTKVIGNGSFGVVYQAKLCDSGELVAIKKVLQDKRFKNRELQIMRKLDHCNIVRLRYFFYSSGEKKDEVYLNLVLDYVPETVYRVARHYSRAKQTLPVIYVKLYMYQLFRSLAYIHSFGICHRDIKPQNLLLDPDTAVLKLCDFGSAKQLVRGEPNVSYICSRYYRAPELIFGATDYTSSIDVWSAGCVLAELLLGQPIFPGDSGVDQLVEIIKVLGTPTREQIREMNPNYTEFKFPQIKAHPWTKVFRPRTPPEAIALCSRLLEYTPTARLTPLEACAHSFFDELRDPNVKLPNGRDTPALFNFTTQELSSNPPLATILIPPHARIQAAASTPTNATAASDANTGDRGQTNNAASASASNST

For `NC(=O)c1ccc[n+]([C@@H]2O[C@H](COP(=O)([O-])OP(=O)(O)OC[C@H]3O[C@@H](n4cnc5c(N)ncnc54)[C@H](O)[C@@H]3O)[C@@H](O)[C@H]2O)c1`, the IC50 was 400 µM (TNKS (Homo sapiens, UniProt O95271); histone H1 ADP-ribosylation, inhibitor, DELFIA).
`Nc1ccn([C@@H]2O[C@H](COP(=O)(O)OP(=O)(O)O)[C@@H](O)[C@H]2O)c(=O)n1` has a Kd of 3.8 ± 0.1 µM (RNASE1 (Bos taurus, UniProt P61823); native MS, single-point; 0.5 µM).
`CCCCCCCCCCCCNC(=S)NCCCC[C@H](NS(C)(=O)=O)C(=O)N[C@H](C)C(=O)N[C@@H](CCCNC(=N)N)C(=O)O` gave an IC50 of 0.11 ± 0.01 µM (SIRT2; enzyme activity, inhibitor).
For `N#C[C@H](C[C@@H]1CCCNC1=O)NC(=O)[C@H](CC1CC1)NC(=O)c1cc2cccc(Cl)c2[nH]1`, the IC50 was 5.5 µM (CYP2C8; enzyme activity, time-dependent inhibitor; human liver microsomes; 30 min NADPH preincubation, added: amodiaquine N-deethylation).
`CN(C)C(=O)c1cc2cnc(Nc3cccc4c(=O)cc(N5CCOCC5)oc34)nc2n1C1CCCC1` gave an IC50 of > 10 µM (Bromodomain-containing protein 4, BD1 (BRD4, Homo sapiens, UniProt O60885); inhibitor).
`O=C1CC(N2CCC(c3nc4ccccc4o3)CC2)C(=O)N1c1cc(Cl)cc(Cl)c1` (stereo not shown) gave an IC50 of > 125 µM (Histone acetyltransferase RTT109 with Vps75; enzyme activity, inhibitor, HTS, CPM-based, dose response).
`CN(C)C(=O)c1cc2cnc(Nc3cc(C(=O)O)cc(-c4ccc5c(=O)cc(N6CCOCC6)oc5c4)c3)nc2n1C1CCCC1` has an IC50 of > 10 µM (BRD4 BD2; inhibitor).
The IC50 of `O=C(Nc1ccccc1Oc1nc2ccccc2n2cnnc12)c1cccs1` is reported as 7.38 µM (Catenin beta-1, with BCL9 HD2 (CTNNB1, Homo sapiens, UniProt P35222); BCL9 binding, inhibitor, AlphaScreen).
With `CC#CC(=O)N1CCC[C@H]1c1nc(-c2ccc(C(=O)Nc3ccccn3)cc2)c2c(N)nccn12` the IC50 was > 5 µM (LYN).
With `O=[N+]([O-])c1c(SCCO)ccc2nsnc12` the IC50 was > 125 µM (Histone acetyltransferase RTT109 with Vps75; enzyme activity, inhibitor, HTS, CPM-based, dose response).
`COc1ccc(-c2oc3c(CC=C(C)C)c(O[C@@H]4O[C@H](CO)[C@@H](O)[C@H](O)[C@H]4O)cc(O)c3c(=O)c2O[C@@H]2O[C@@H](C)[C@H](O)[C@@H](O)[C@H]2O)cc1` gave an IC50 of > 148 µM (serine/threonine phosphatase Stp1 (Staphylococcus aureus, UniProt A0A0H2XF73); phosphatase activity, inhibitor).
With `O=C(NNC1CC(=O)N(c2ccc(Br)cc2)C1=O)c1cccnc1` (stereo not shown) the IC50 was > 125 µM (Histone acetyltransferase RTT109 with Vps75; enzyme activity, inhibitor, HTS, CPM-based, dose response).
For `CC(=O)c1cnc2ccc(-c3cc(Cl)c(O)c(Cl)c3)nc2c1N[C@H]1CC[C@H](CN(C)C)CC1`, the IC50 was > 100 µM (Receptor-like protein kinase FERONIA (FER, Arabidopsis thaliana, UniProt Q9SCZ4, D679A); kinase activity, inhibitor, ADP-Glo).
For `CC/C(=N\NC(=O)NCc1cccc(O)c1)c1ccc(O)c(C)c1O`, the IC50 was 0.00457 ± 0.00021 µM (LATS2 (Homo sapiens, UniProt Q9NRM7); kinase activity, inhibitor).
With `CCc1ccc(Cn2nnc3c4ccc(F)cc4c(=O)[nH]c32)cc1` the IC50 was > 10 µM (PARP3 (Homo sapiens, UniProt Q9Y6F1)).
With `O=C1CC(SCc2ccccc2)C(=O)N1c1ccc(Br)cc1` (stereo not shown) the IC50 was > 125 µM (Histone acetyltransferase RTT109 with Vps75; enzyme activity, inhibitor, HTS, CPM-based, dose response).
With `CC(C)=CCc1c(O)cc2c(c1O)C(=O)C[C@@H](c1ccc(O)cc1)O2` the IC50 was 1.9 ± 0.1 µM (CYP2C8; inhibitor; pH 7.4).
Under inhibition, `O=C1C(O)=C([C@H]2CC[C@H](c3ccc(Cl)cc3)CC2)C(=O)c2ccccc21` is recorded as “inhibited” (Toxoplasma gondii; ex vivo bradyzoite plaques; ME49; 3 times EC90, continuous exposure).
With `COc1ccc(C2(F)CC2N)cc1OC` (stereo not shown) the IC50 was 2.2 µM (tyramine oxidase (Arthrobacter sp.); enzyme activity, inhibitor, spectrophotometric benzylamine oxidation; 10 min preincubation, pH 7.2, 25 °C, added: benzylamine 0.6 mM substrate).
The IC50 of `CN(C)c1ccc(Nc2nc(-c3ccncc3)nc3c2CC(N)CC3)cc1` (stereo not shown) is reported as > 100 µM (TOP2B (Homo sapiens, UniProt Q02880); DNA relaxation, inhibitor).
For `Cc1cnc(-c2ccc(-c3ccc(NC(=O)Nc4c(F)cc(F)cc4F)cc3F)c3c2C(=O)NC3)[nH]1`, the IC50 was 0.0177 µM (LYN; enzyme activity, inhibitor, mobility shift; added: ATP 1 mM).
For `O=S1(=O)CC(S(=O)(=O)Nc2ccc(Cl)c(Cl)c2)c2ccccc21` (stereo not shown), the IC50 was > 125 µM (Histone acetyltransferase RTT109 with Vps75; enzyme activity, inhibitor, HTS, CPM-based, dose response).
The IC50 of `Cc1ccc2[nH]nc(-c3nnc(Nc4cc(Cl)cc(Br)c4)s3)c2c1` is reported as 17 ± 1.33 µM (thymidine phosphorylase; enzyme activity, inhibitor, spectrophotometric; pH 7.5, 25 °C).
With `O=C(O)c1ccc2nc(-c3ccc(OCCC(O)COc4ccc(-c5nc6ccc(C(=O)O)cc6[nH]5)cc4Br)c(Br)c3)[nH]c2c1` (stereo not shown) the IC50 was 73 ± 13 µM (Beta-lactamase (Escherichia coli, UniProt Q8VNN1); enzyme activity, inhibitor).
`NC1CS(=O)(=O)c2ccccc21` (stereo not shown) has an IC50 of > 125 µM (Histone acetyltransferase RTT109 with Vps75; enzyme activity, inhibitor, HTS, CPM-based, dose response).
`COc1c(Cl)cc(Cl)cc1C=C(C#N)C(N)=O` has an IC50 of > 200 µM (UCHL1; inhibitor, ubiquitin-rhodamine cleavage; 2 h preincubation).
For `O=C(Nc1cccnn1)N1CCC(=Cc2cccc(Oc3ccc(C(F)(F)F)cn3)c2)CC1`, the IC50 was 0.0027 µM (Faah (Rattus norvegicus, UniProt P97612); enzyme activity, inhibitor; rat brain membranes; 45 min preincubation).
For `N#Cc1ccc2nc(Nc3ccc(N4CCOCC4)c(Cl)c3)[nH]c2c1`, the IC50 was > 30 µM (GSK3B (Homo sapiens, UniProt P49841); binding, NanoBRET target engagement; HEK293 cells; added: tracer K8).
`CC(NC(=O)C(C#N)=Cc1cccc(Cl)c1Cl)c1ccccc1` (stereo not shown) has an IC50 of > 200 µM (UCHL1; inhibitor, ubiquitin-rhodamine cleavage; 2 h preincubation).
`O=S1(=O)C=Cc2ccccc21` has an IC50 of > 125 µM (Histone acetyltransferase RTT109 with Vps75; enzyme activity, inhibitor, HTS, CPM-based, dose response).
For `CCOC(=O)[C@H](CCc1ccccc1)N[C@@H](C)C(=O)N1CCC[C@H]1C(=O)O`, the IC50 was 0.0376 µM (ACE (Oryctolagus cuniculus, UniProt P12822); enzyme activity, inhibitor; water; 2 h, pH 8.3, 37 °C, added: hippuryl-histidyl-leucine).
The IC50 of `O=[N+]([O-])c1c(NC2CS(=O)(=O)c3ccccc32)nc2ccccn12` (stereo not shown) is reported as > 125 µM (Histone acetyltransferase RTT109 with Vps75; enzyme activity, inhibitor, HTS, CPM-based, dose response).
`CN1CCN(c2ccc(Nc3ncc4cc(C#N)c(=O)n(C5CCCC5)c4n3)cc2)CC1` has an IC50 of 0.624 µM (LRRK2 (Homo sapiens, UniProt Q5S007)).
With `Cn1nc2c(=O)n(C3CC3)cnc2c1[C@](O)(c1cnc(C(F)(F)F)c(Cl)c1)C(F)(F)F` the IC50 was > 30 µM (Dihydroorotate dehydrogenase (Canis lupus familiaris, UniProt A0A8I3MWX2); enzyme activity, inhibitor, DCIP reduction).
`Cc1cc(C)nc(SCC(=O)Nc2ncc(Cc3cccc(OCc4cn(Cc5ccccc5C)nn4)c3)s2)n1` has an IC50 of 0.76 ± 0.16 µM (SIRT2; inhibitor).
`CCNCc1nc2c(N)nc3ccccc3c2n1CC(C)(C)O` has an EC90 of 22.8 µM (Toxoplasma gondii; parasite growth, luciferase reporter; HFF, tachyzoite; 72 h).
With `CN(C)C(=O)c1cc2cnc(Nc3cc(C(F)(F)F)c(-c4ccc5c(=O)cc(N6CCOCC6)oc5c4)cn3)nc2n1C1CCCC1` the IC50 was > 10 µM (BRD4 BD2; inhibitor).
The IC50 of `CC[C@@H]1[C@H](F)C(=O)N[C@@H]1COc1nccc2cc(C(N)=O)c(OC)cc12` is reported as > 5 µM (PLK1 (Homo sapiens, UniProt P53350); ATP-site probe binding, ActivX profiling; THP-1 cell lysate; Lys2 site).
`COC(=O)c1ccn2c(NCCN3CCOCC3)c(-c3cccn3C)nc2c1` has an IC50 of 232 µM (PIK3CA (Homo sapiens, UniProt P42336); enzyme activity; added: 10 µM ATP).
`Cc1c(-c2ccccc2)oc2c(C(=O)OCCN3CCCCC3)cccc2c1=O` gave an IC50 of 32.8 µM (Anoctamin-1 (Ano1, Mus musculus, UniProt Q8BHY3); chloride current; HEK293 transfected; at +80 mV).

For quick reference, copied from above:
`COc1c(Cl)cc(Cl)cc1C=C(C#N)C(N)=O` has an IC50 of > 200 µM (UCHL1; inhibitor, ubiquitin-rhodamine cleavage; 2 h preincubation).
With `CN(C)C(=O)c1cc2cnc(Nc3cc(C(F)(F)F)c(-c4ccc5c(=O)cc(N6CCOCC6)oc5c4)cn3)nc2n1C1CCCC1` the IC50 was > 10 µM (BRD4 BD2; inhibitor).
`COc1ccc(-c2oc3c(CC=C(C)C)c(O[C@@H]4O[C@H](CO)[C@@H](O)[C@H](O)[C@H]4O)cc(O)c3c(=O)c2O[C@@H]2O[C@@H](C)[C@H](O)[C@@H](O)[C@H]2O)cc1` gave an IC50 of > 148 µM (serine/threonine phosphatase Stp1 (Staphylococcus aureus, UniProt A0A0H2XF73); phosphatase activity, inhibitor).
For `O=S1(=O)CC(S(=O)(=O)Nc2ccc(Cl)c(Cl)c2)c2ccccc21` (stereo not shown), the IC50 was > 125 µM (Histone acetyltransferase RTT109 with Vps75; enzyme activity, inhibitor, HTS, CPM-based, dose response).
For `CC/C(=N\NC(=O)NCc1cccc(O)c1)c1ccc(O)c(C)c1O`, the IC50 was 0.00457 ± 0.00021 µM (LATS2 (Homo sapiens, UniProt Q9NRM7); kinase activity, inhibitor).
